Results of several laboratories.
A part holds a random share of what one study measured. Positions count from the first letter of the parent shown.

Set 1
Target: RING finger protein unkempt homolog, zinc fingers 1-6, GST-SBP tag (UNK, Homo sapiens, UniProt Q9C0B0, residues 30-357)
UniProt Q9C0B0, sequence (30-357, looked up): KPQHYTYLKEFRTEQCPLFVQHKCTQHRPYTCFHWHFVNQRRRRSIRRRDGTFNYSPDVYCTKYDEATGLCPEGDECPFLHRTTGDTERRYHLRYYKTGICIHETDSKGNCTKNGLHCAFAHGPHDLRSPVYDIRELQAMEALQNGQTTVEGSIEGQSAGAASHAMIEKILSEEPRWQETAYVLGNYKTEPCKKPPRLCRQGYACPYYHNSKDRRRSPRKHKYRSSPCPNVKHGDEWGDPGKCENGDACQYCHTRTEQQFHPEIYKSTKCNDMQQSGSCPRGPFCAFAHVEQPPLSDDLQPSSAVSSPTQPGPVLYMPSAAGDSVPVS
Technique: RNA Bind-n-Seq
Form: RNA
Matrix: in vitro
Tested at: not given
Notes: RNA with constant flanks, human and mouse sites, ends assumed
Relative to: input RNA pool
Reading: higher = stronger binding
Shared flanks, not repeated: GGGAGUUCUACAGUCCGACGAUC … CAACAGAGGAUUGAGCAUCA
| Strand | bound/input enrichment [ratio] |
| --- | --- |
| GUCCAGGGAUUCCAGGUUGAAUACAAAGACUUCCCCAAAAACAACAAGAACGAAUUUGUAUCUCUUAUCAAUUGCUCCUCUCAGCCACCUCUGAUCAGCCAUGGUAUCGGCAAGGAUGUG | 0.253 |
| GCUUCUGUGAGACUUGAUAAUAGCUCCUCUGGUGCAAGUGUGGUAGCUAUUGACAACAAAAUCGAGCAAGCUAUGGAUCUAGUGAAAAGCCAUUUGAUGUAUGCGGUCAGAGAAGAAGUG | 0.327 |
| GUGGAUGUUUUGAUCGAUACAUGUCAUGGUGAAGAUGCCCUGCCCAAUGGGUUAGAUGUCACCUUUGAAGUGACAGAGCUGAGGAGACUGACGGGCAGUUACAACACCAUGGUUGGAAAC | 0.347 |
| ACCCAGUUCGUGGUGCACCUGCUCAUUGGCUUCGUCUUCGUGGUGAGCGGGUUAAUUAUCAACUUCACCCAGCUGUGCACACUGGCCCUCUGGCCCAUCAGCAAGCACCUAUACCGCCGU | 0.162 |
| AAACUAAAUGGAACCAUGUGCUAAUUUUUCACAAUUAUUGACCUGUAUUGAUUGCCACUGUAGUUUGGUAUUUCCCUUUACUUUGGUGGCCUGCUUCCCUCAUGCCCUGGAAUACAACUC | 0.317 |
| UUAUUUUCUAAAAAUUGUUACAUGCAAAUUUAAACCAAGAUUUAUCAGUAAAAGAAAAAAAUAGAAUCCUUAAUAAUGUAAAUGUUGUUAUAUAUGCUACCCUGGUGAAAAUAUUUUUAU | 3.22 |
| GUGUUGAACUUCACAGCCUUGCUCAUUGAGUACAGCUUUUCCCGGCAUCUGUACAGUUCCAUAGAGCAUUUGACAACUUUAUUGGCUUCCUCUGAUAUGCAAGUGGUGCUGGCAGUCCUC | 0.642 |
| UUUUUUCUGCCAAAAGGAGCCUACAUUUAUAAUGCACUUAUUGAAUUCAUUAGGAGCGAAUAUAGGAAAAGAGGAUUCCAGGAGGUAGUCACCCCAAACAUCUUCAACAGCCGACUCUGG | 0.573 |

Set 2
Target: Centromere-binding protein 1, full length, N-terminal tag (CBF1, Saccharomyces cerevisiae, UniProt P17106, residues 1-351)
UniProt P17106, sequence (whole entry, looked up): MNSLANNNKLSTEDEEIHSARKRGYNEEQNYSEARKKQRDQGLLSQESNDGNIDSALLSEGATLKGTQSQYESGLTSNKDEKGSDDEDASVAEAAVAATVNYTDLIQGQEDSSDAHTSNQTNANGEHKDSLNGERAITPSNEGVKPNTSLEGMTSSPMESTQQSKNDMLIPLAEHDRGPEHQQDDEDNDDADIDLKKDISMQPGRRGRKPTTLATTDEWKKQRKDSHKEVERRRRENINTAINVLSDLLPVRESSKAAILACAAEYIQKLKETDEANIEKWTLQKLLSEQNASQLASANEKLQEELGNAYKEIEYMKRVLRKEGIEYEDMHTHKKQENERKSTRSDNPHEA
Technique: protein-binding microarray
Form: double-stranded DNA, one strand shown
Matrix: in vitro
Tested at: 0.8 µM
Notes: whole 60-bp probe, no competitor
Reading: higher = stronger binding
Shared flanks, not repeated: … GTCTTGATTCGCTTGACGCTGCTG
| Strand | fluorescence intensity |
| --- | --- |
| GAAGAACTTTAGCGTCACCAGTTACTGCGACACTAG | 506 a.u. |
| CTAGAGAAAACCTATCACGTCTGACGAACATGATTC | 635 a.u. |
| GAAAGGGTTTGTCGTTGCACGTGATCAATGGTTTAG | 17800 a.u. |
| GAACCTTTTTTATATCACGAAAAAAAACGCGACTAG | 625 a.u. |
| CTACACTCGTCATGTCACACGGAGAGTTGGCCATTC | 552 a.u. |
| GAATTCTCCTCAGTTCACATGATAAAGATACTTTAG | 992 a.u. |
| CTATGCAGTAGGGAGCTCATGACAGCAAGTACATTC | 574 a.u. |
| CTAGAAATATTTCAGCATGTGATGTGGCTGAAATTC | 2840 a.u. |
| CTAAATCAGTTAGGTGTCATGATATTGATACATTTC | 602 a.u. |
| GAACCTCAGAGGTGTCATCAGAAACACCTCATTTAG | 489 a.u. |
| CTAAGGCGCTTCCATTCCGTGACACTGAGAGTCTTC | 548 a.u. |
| CCTAACTACTATAATCACCTTCTATAGCTTCGTACA | 497 a.u. |
| CTATTTTACGCAATTAGCGTGCCTAAGTACAAATTC | 547 a.u. |
| CTAATATATATATAGAACACCACCCTTGGAAAATTC | 632 a.u. |
| GAAAAAAATGCTCACCTGACCTTATTCACCCAATAG | 5200 a.u. |
| CTATTGACTTTGTGCACCACCTTCAAATTTACTTTC | 525 a.u. |
| GAATGTGTGATGGACATCAGCATTCAATGTATATAG | 494 a.u. |
| CTAATTGTACGTATTCACGTGTGAATTGCTAAATTC | 1940 a.u. |

Set 3
Target: CCNE1, cyclin fold, Cln2 fusion (human)
Technique: yeast growth competition, sequencing
Matrix: yeast
Notes: weak parent motif
Relative to: not given
Reading: higher = stronger binding
Parent: MASTL docking peptide (human); PMIAKNLMCELDE
| Change | normalised enrichment score |
| --- | --- |
| L7C | 0.0643 |
| K5M | 0.0224 |
| E10H | -0.173 |
| L11R | -0.328 |
| M8T | -0.303 |
| C9M | -0.0697 |
| M8H | -0.0619 |
| C9Y | -0.0568 |
| L7Y | -0.0864 |
| L7W | 0.384 |
| D12W | -0.00741 |
| M8R | 0.0501 |
| D12G | -0.0981 |
| D12Y | -0.384 |
| C9H | -0.323 |
| M2Q | -0.0576 |
| A4V | 0.188 |
| M2R | 0.124 |
| N6G | 0.0137 |
| N6F | 0.105 |
| I3F | -0.0792 |
| L11V | -0.0415 |
| E10D | -0.207 |
| E10F | -0.135 |
| C9V | 0.0339 |

Set 4
Target: ABI1, truncated, D143A, DHFR fusion (Arabidopsis thaliana)
Technique: DHFR PCA, deep sequencing
Matrix: yeast
Notes: methotrexate growth selection, single substitutions
Together with: (+)-ABA 200 µM
Relative to: wild-type fitted maximum
Reading: higher = stronger binding
Parent: PYL1, truncated, DHFR fusion (Arabidopsis thaliana); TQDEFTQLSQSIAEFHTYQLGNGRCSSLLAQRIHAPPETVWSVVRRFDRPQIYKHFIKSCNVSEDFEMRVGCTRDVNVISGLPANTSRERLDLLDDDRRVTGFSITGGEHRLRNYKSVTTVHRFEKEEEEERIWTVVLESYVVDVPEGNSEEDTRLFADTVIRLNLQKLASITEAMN
| Change | relative binding score |
| --- | --- |
| H34F | 90.9% |
| S26Y | 91.2% |
| E64Y | 96.5% |
| D92C | 69.8% |
| R111M | 79.4% |
| S59R | 89.5% |
| D92P | -8.77% |
| A158H | 45.6% |
| L112Q | -3.9% |
| T6N | 99.4% |
| E147M | 89.9% |
| D97F | 93% |
| H34E | 99.7% |
| E89S | 3.42% |
| D159Y | 19.4% |
| S27Y | 50.4% |
| T154V | 97.1% |

Some of these lines once more (set 3):
| Change | normalised enrichment score |
| --- | --- |
| A4V | 0.188 |
| L7W | 0.384 |
| M2Q | -0.0576 |
| E10H | -0.173 |
| C9Y | -0.0568 |
| D12W | -0.00741 |
| D12Y | -0.384 |
| D12G | -0.0981 |
| M8R | 0.0501 |
| E10F | -0.135 |
| M8T | -0.303 |
